{"data": "Measured values of several laboratories", "note": "Lines come from different studies, so protocols differ. ± gives the spread as reported."}
{"Molecule": "C[C@@H](O)[C@H]1C(=O)N2C(C(=O)O)=C(S[C@@H]3CN[C@H](C(=O)N(C)C)C3)[C@H](C)[C@H]12", "test": "microdialysis", "system": "pig, Danish Landrace, subcutaneous adipose tissue", "setting": "intravenous, 1000 mg over 10 min, 450 min dosing interval, together with: 2.0 µg/mL MIC", "scale": "relative to: dosing interval", "quantity": "time above MIC", "result": "40%"}
{"Molecule": "O=C(Nc1nc2cccc(-c3ccc(CN4CCS(=O)(=O)CC4)cc3)n2n1)C1CC1", "system": "human male", "setting": "oral, 50 mg twice daily, steady state, mean", "quantity": "terminal half-life", "result": "345 min"}
{"Molecule": "CNCc1ccc(-c2[nH]c3cc(F)cc4c3c2CCNC4=O)cc1", "system": "human", "setting": "oral, 300 mg once daily, day 15, steady state, median", "quantity": "Tmax", "result": "2.53 h"}
{"Molecule": "Cc1cc(Nc2cc3ncccc3c(N[C@@H]3C[C@H]4CC[C@@H](C3)N4CCC#N)n2)n[nH]1", "system": "beagle dog, male, plasma", "setting": "oral, 30 mg/kg/day, last day of 4 weeks", "quantity": "Cmax", "result": "93.4 ng/mL"}
{"Molecule": "O=C(CCCCCCC(=O)Nc1ccc([18F])cc1)NO", "system": "C57BL/6 mouse, whole blood", "setting": "intravenous, 243 µCi, after initial phase, DMA-Solutol-PBS vehicle", "scale": "relative to: dose", "quantity": "remaining in blood", "result": "~6%"}
{"Molecule": "C=C(C)[C@@H]1CC[C@]2(NCCN3CCS(=O)(=O)CC3)CC[C@]3(C)[C@H](CC[C@@H]4[C@@]5(C)CC=C(C6=CC[C@@](CF)(C(=O)O)CC6)C(C)(C)[C@@H]5CC[C@]43C)[C@@H]12", "system": "healthy human", "setting": "oral, 100 mg, single ascending dose, geometric mean", "quantity": "t1/2", "result": "1370 min"}
{"Molecule": "CCCC[C@@H]1NC(=O)[C@@H](NC(=O)[C@H](CCC(=O)O)NC(=O)CNC(=O)CN2CCN(CC(=O)O)CCN(CC(=O)O)CCN(CC(=O)O)CC2)CCCCNC(=O)C[C@@H](C(N)=O)NC(=O)[C@H](C(C)C)NC(=O)[C@@H]2CCCN2C(=O)[C@H](CCCNC(=N)N)NC(=O)CNC(=O)[C@H](Cc2c[nH]c3ccccc23)NC(=O)[C@H](CCCNC(=N)N)NC(=O)[C@@H](Cc2ccccc2)NC(=O)[C@H](Cc2c[nH]cn2)NC(=O)[C@H](CCC(=O)O)NC1=O [indium-111 labelled]", "system": "normal C57 mice, heart", "setting": "intravenous, 0.037 MBq, 24 h", "quantity": "tissue uptake", "result": "0.05 ± 0.04 %ID/g"}
{"Molecule": "Cc1nc2cccc(OCC(C)(C)C(=O)NC(C)C)c2c(N)c1C(=O)O", "system": "female Sprague-Dawley rat, plasma", "setting": "dietary, 100 mg/kg/day, day 90", "quantity": "Tmax", "result": "12 h"}
{"Molecule": "O=C(O)COC[C@H]1CC[C@H](COC(=O)N(c2ccccc2)c2ccc(Cl)cc2)CC1", "system": "human, plasma", "setting": "oral, 20 µg, 12 h, multiple doses, twice daily, steady state", "quantity": "concentration", "result": "0.928 ng/mL"}
{"Molecule": "Cn1c(-c2ccc(C(N)=O)cc2F)nnc1C(C)(C)Oc1c(F)cc(Cl)cc1F", "system": "young Japanese adults, plasma", "setting": "oral, 50 mg single dose, day 1, high-dose multiple-dose study", "quantity": "Tmax range over subjects", "result": "1 to 8 h"}
{"Molecule": "CN(C)C/C=C/C(=O)Nc1cc2c(Nc3ccc(F)c(Cl)c3)ncnc2cc1O[C@H]1CCOC1", "system": "human, plasma", "setting": "oral, 20 mg once daily, day 27, geometric mean", "quantity": "half-life at steady state", "result": "2900 min"}
{"Molecule": "CC(=O)c1cc(C(=O)N[C@@H](C)Cn2ccc(-c3ccc(C#N)c(Cl)c3)n2)[nH]n1", "system": "human", "setting": "oral, 600 mg twice daily, with food", "quantity": "effective half-life", "result": "14.1 h"}
{"Molecule": "CCOc1ccc(Cc2cc([C@]34OC[C@](CO)(O3)[C@@H](O)[C@H](O)[C@H]4O)ccc2Cl)cc1", "test": "equilibrium dialysis", "system": "human, type 2 diabetes, severe renal impairment, plasma", "setting": "oral, 15 mg, 6 h", "quantity": "fu", "result": 0.0411}
{"Molecule": "C[C@@H]1CCC[C@H](n2cnc(-c3cc(Cl)ccc3-n3cc(Cl)nn3)cc2=O)c2cc(ccn2)-c2c(cnn2C(F)F)NC1=O", "system": "human, plasma", "setting": "oral, 200 mg, single dose, fasted, healthy volunteers", "quantity": "AUC(0-inf)", "result": "13800 ng·h/mL"}
{"Molecule": "CCCOc1ccc([C@H]2CNC(=O)N2c2ccc3[nH]cnc3c2)cc1", "system": "human volunteers fed, plasma", "setting": "oral capsule, 1200 mg single dose, day 1, geometric mean", "quantity": "apparent terminal half-life", "result": "448 min"}
{"Molecule": "CNC(=O)c1ccc(-c2cnc3ncc(Cc4ccc5ncccc5c4)n3n2)cc1F", "system": "human, normal hepatic function, plasma", "setting": "oral, 200 mg single dose", "quantity": "half-life (mean)", "result": "720 min"}
{"Molecule": "CN1CC[C@@H](NC(=O)Nc2ccc(C#N)cc2)C[C@@H]1c1nc2ccccc2[nH]1", "system": "normal hepatic function, plasma", "setting": "oral, 100 mg single dose, fasted, geometric mean", "quantity": "AUC(0-inf), unbound", "result": "845 ng·h/mL"}
{"Molecule": "CC1=C2C[C@H]3[C@@H](CC[C@@H]4C[C@H](NS(C)(=O)=O)CC[C@@]43C)[C@@H]2CC[C@@]2(C1)O[C@@H]1C[C@H](C)CN[C@H]1[C@H]2C", "system": "patients, plasma", "setting": "oral, 20 mg daily, day 22, cycle 1", "quantity": "Tmax", "result": "2.13 h"}
{"Molecule": "O=C(c1nc2n(n1)[C@H](c1ccccc1)C[C@@H]2F)C1CC1", "system": "human, plasma", "setting": "oral, 150 mg, 24 h, single dose, fasted, healthy volunteers", "quantity": "concentration", "result": "535 ng/mL"}
{"Molecule": "CO[C@H]1C[C@@H]2CC[C@@H](C)[C@@](O)(O2)C(=O)C(=O)N2CCCC[C@H]2C(=O)O[C@H]([C@H](C)C[C@@H]2CC[C@@H](O)[C@H](OC)C2)CC(=O)[C@H](C)/C=C(\\C)[C@@H](O)[C@@H](OC)C(=O)[C@H](C)C[C@H](C)/C=C/C=C/C=C/1C", "system": "healthy human adults, blood", "setting": "oral, 0.5 mg single dose, 24 h, together with: ritonavir-containing 3D regimen", "quantity": "C24", "result": "5.59 ng/mL"}
{"Molecule": "CC(C)(Sc1ccncc1-c1ccc(C#N)c2ccccc12)C(=O)O", "system": "human, male, Japanese, plasma", "setting": "oral, 5 mg, day 6, fed, single dose", "quantity": "t1/2", "result": "479 min"}
{"Molecule": "CNC(=O)c1cc(Oc2ccc(NC(=O)Nc3ccc(Cl)c(C(F)(F)F)c3)c(F)c2)ccn1", "system": "healthy male human, plasma", "setting": "ocular, after last of multiple doses", "quantity": "terminal t1/2", "result": "2.5 to 2.79 days"}
{"Molecule": "CCCCC1(CCCC)CN(c2ccccc2)c2cc(SC)c(OCC(=O)N[C@@H](C(=O)NCC(=O)O)c3ccccc3)cc2S(=O)(=O)C1", "system": "human, plasma", "setting": "oral, 10 mg once daily, day 1, geometric mean", "quantity": "AUC(0-t)", "result": "1.13 ng·h/mL"}
{"Molecule": "NC(=O)N1CCC(CC(=O)N2CCC([C@H]3c4ncc(Br)cc4CCc4cc(Cl)cc(Br)c43)CC2)CC1", "system": "human, plasma", "setting": "oral, 200 mg twice daily, cycle 1 day 15, together with: gemcitabine 600 mg/m2", "quantity": "AUC(tau)", "result": "16800 ng·h/mL"}
{"Molecule": "des-acyl ghrelin (human)", "system": "mouse, wild type, hippocampus", "setting": "intravenous, 10 min", "quantity": "brain/serum ratio", "result": "6.92 µL/g"}
{"Molecule": "O=C1N=C(N2CCOCC2)CN1c1ccc(Cl)cc1", "system": "beagle dog, female, plasma", "setting": "oral, 30 mg/kg, tablets, fed", "quantity": "Cmax", "result": "17700 ng/mL"}
{"Molecule": "Nc1ccc(-c2nc([C@H]3CCc4cc(-c5cc(Cl)ccc5-n5cnnn5)cc(=O)n43)c(F)[nH]2)c(F)n1", "system": "human, plasma", "setting": "oral, 5 mg, single dose, fasted", "quantity": "AUC", "result": "541 ng·h/mL"}
{"Molecule": "C[C@]12CC[C@@H]3c4ccc(O)cc4CC[C@H]3[C@@H]1C[C@@H](O)[C@@H]2O", "test": "GC-MS", "system": "breast cancer women on NSAI, serum", "setting": "vaginal, 0.03 mg daily, 2 h, day 28", "quantity": "maximum serum concentration", "result": "0.0166 ng/mL"}
{"Molecule": "TWPKHFDKHTFYSILKLGKH-OH (C-acid)", "system": "peptide, male C57BL/6J mouse, brain", "setting": "intravenous, 60 min, vascular blood washed out", "scale": "relative to: injected dose", "quantity": "brain uptake", "result": "0.042 ± 0.017%"}
